{"data": "Assay results pooled from the literature", "note": "Numbered parts are unrelated; each lists some results of a single study."}
{"data": "Block 1", "target": "RNA binding protein fox-1 homolog 2, RRM domain, GST-SBP tag (RBFOX2, Homo sapiens, UniProt O43251-10, residues 100-194)", "method": "RNA Bind-n-Seq", "form": "RNA", "matrix": "in vitro", "concentration": "365 nM", "notes": "natural RNA segment, single round, ends assumed", "baseline": "no-protein control", "direction": "higher = stronger binding", "shared flanks, not repeated": "GGGAGUUCUACAGUCCGACGAUC … UGGAAUUCUCGGGUGCCAA", "Target sequence (chain)": "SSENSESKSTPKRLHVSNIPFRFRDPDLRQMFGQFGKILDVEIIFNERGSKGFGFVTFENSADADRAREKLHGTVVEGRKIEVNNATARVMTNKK"}
{"Strand": "UUGAAAUUCUGAACACCGUCAGCACCCUCUCUUCCCUAUCAUGGGUCAUCUGACCCCUGUCCGUCUCCUUGUCCCUGCUUCAUGUUUGGGGGCCUUUCUUUAACUGCCUU", "RBNS enrichment (R)": 0.585}
{"Strand": "UUAAGAGCAUUAAAUGAAUAUUAAUCACCUUUAAAGUCUUUUAGAAAAGGACUUGUAUUGGUUUUUGGCUGCAUAGAGGGGUUGAAUAAGUGUAUGUAUGUGUGUGCGUG", "RBNS enrichment (R)": 1.4}
{"Strand": "UGUCCCCGCUGCCCAGCACCCUCUCUCGGGUCGGCUCUACCACCCCUCUCUUUCCUCCAAGCUAUUUUCUUCCUGGUUGUGGGGCGCGAAGGGCACACUGUAAAGUUGGG", "RBNS enrichment (R)": 0.467}
{"Strand": "CAGGAAACCCUGGCUUGCUUGCCGAGCCUAAUGAAAGGGAAAGUCAGCUUUCAGAGCCAGUGAAGGAGCCACGUGAAUGGCCCUAGAACUGUGCCUAGUUCCUGUGGCCA", "RBNS enrichment (R)": 0.233}
{"Strand": "UCCUCAGGCAGUGCCCUUCCUCCCCACUCUUCCUCCCCACAGACAGGCCUCUGCUCCUGCGCCUGCCUGCAUGCUCUCUCUUGUCGUUGGAGCCUGGAGCCUUGCUCUCU", "RBNS enrichment (R)": 2.17}
{"Strand": "GCACAGUUGUUACGCAUACUACAUGGUAUGUUACAAUUAGGGUUUCCUUGCCUCUUUACAGUACACUAAUCCGCCUAAAGGUGGCUGUUUGAUAUUUACCGUGAUAAUUA", "RBNS enrichment (R)": 0.343}
{"Strand": "CAACAUCAUACUUCACUUACUUGUUAAUUUACUUUUUACCCUUAUUCUAAGAGCAAGUUGAGUUGAACUGAAUCUUCCUUGUCUUAGUAACAAUGUAUAAAUAGUGGCUU", "RBNS enrichment (R)": 0.576}
{"Strand": "GCUUCAAACUGUUUUAAUCAUCAAACCAAGUCACUGUUCAUUUUCAUCUUCUUGUACAGUUUUUGUUUGGGUAAUGAUCACAGCAAUCCUUACACAUUUUAUGUAAACUC", "RBNS enrichment (R)": 0.349}
{"Strand": "CUGGGCAGUGGUCUGUUCACCCUGAGUCCCACCCUUUGUUAAAUAACAAACUGCUGAUUCUUAAAAAGUGGUUCUGGCCCUCAUUAGCUCUUCCAGGUCUGCCUGCUGUA", "RBNS enrichment (R)": 0.655}
{"Strand": "CAGGCCCCACCAUCGGGACAUCACCCCAGCCUCUGCCAGGGGCAGAGGUAACCCCAAGCAGGGCUGGCCCCUCUAAAGAGGACAUUUCCCAGUUUGUCCUUUCUUGUCCA", "RBNS enrichment (R)": 0.565}
{"Strand": "AACUGAGGACUUUAAAAGAGAUUUUCCCUUCCCAAACGUGUCUGGACAGUACCUGAUUGUAUUUUUUUUGUUUUGUUUUGUUUUUUAAUAAAAGCACAGUACUUUUCAGU", "RBNS enrichment (R)": 0.917}
{"Strand": "CCUGGUUCCCUGGGACAGCAGGAUCCCCUCCUCAAAGCAGCCAGAGUUUACUGAACACCAAGGAAGAAGUGAGACCUCAGUGACUGUUCUCGUGCCAAGAAGCCCUGGGC", "RBNS enrichment (R)": 0.291}
{"data": "Block 2", "target": "human cyclin B2", "read-out": "peptide binding", "method": "yeast competitive growth sequencing", "form": "peptide", "organism": "Saccharomyces cerevisiae", "strain": "cyclin B2-Cln2 fusion", "concentration": "concentration not given", "notes": "peptide tiling library", "direction": "direction not given"}
{"Molecule": "RRVLCFDS", "binding enrichment score": 0.338}
{"Molecule": "KPHVSDEEEEEPPFYH", "binding enrichment score": 0.388}
{"Molecule": "TSPGPVLLHPSPSTTQ", "binding enrichment score": 0.0316}
{"Molecule": "ARKRLELGNLGNPQ", "binding enrichment score": -0.222}
{"Molecule": "AIRKMREDRWAVIAKM", "binding enrichment score": 0.109}
{"Molecule": "VRDLSYRLVFLACCVA", "binding enrichment score": 0.00544}
{"Molecule": "ESSTVSEEDYFSSHRD", "binding enrichment score": 0.704}
{"Molecule": "LRRQLSFSED", "binding enrichment score": 2.05}
{"Molecule": "RKLHFEDEVT", "binding enrichment score": -0.187}
{"Molecule": "DTERAHSTLDEDLERW", "binding enrichment score": 0.664}
{"Molecule": "VLLKRLQDVVSERANH", "binding enrichment score": 0.474}
{"Molecule": "EPRNLLSLFEDTLDPT", "binding enrichment score": 1.58}
{"Molecule": "KPITLDTTDFQESFVT", "binding enrichment score": 1.19}
{"Molecule": "GLPDFVFQQQPVESEA", "binding enrichment score": -0.313}
{"Molecule": "NARRSLNFGGSTGT", "binding enrichment score": -0.0262}
{"Molecule": "EPKTLFLGAGDFQF", "binding enrichment score": 0.221}
{"Molecule": "RNRGPKLNAMLRLGVL", "binding enrichment score": 0.219}
{"Molecule": "IPDRSTKPVVFSPT", "binding enrichment score": -0.856}
{"Molecule": "TRRRLFVENDSP", "binding enrichment score": -0.367}
{"Molecule": "ALTMEALEDPSPELME", "binding enrichment score": 1.65}
{"Molecule": "ESSQLTVQAEFDMSAI", "binding enrichment score": -0.379}
{"Molecule": "RDLFDCDFGDLTPLDF", "binding enrichment score": -0.334}
{"Molecule": "DVSERGYVILPNDYFE", "binding enrichment score": 0.0915}
{"Molecule": "PQWPCGKHKRVLIFAS", "binding enrichment score": -0.185}
{"Molecule": "SGYLTDENEVGFRG", "binding enrichment score": 0.825}
{"data": "Block 3", "target": "RING finger protein unkempt homolog, zinc fingers 1-6, GST-SBP tag (UNK, Homo sapiens, UniProt Q9C0B0, residues 30-357)", "method": "RNA Bind-n-Seq", "form": "RNA", "matrix": "in vitro", "concentration": "not given", "notes": "RNA with constant flanks, human-mouse chimeric sites, ends assumed", "baseline": "input RNA pool", "direction": "higher = stronger binding", "shared flanks, not repeated": "GGGAGUUCUACAGUCCGACGAUC … CAACAGAGGAUUGAGCAUCA", "Target sequence (chain)": "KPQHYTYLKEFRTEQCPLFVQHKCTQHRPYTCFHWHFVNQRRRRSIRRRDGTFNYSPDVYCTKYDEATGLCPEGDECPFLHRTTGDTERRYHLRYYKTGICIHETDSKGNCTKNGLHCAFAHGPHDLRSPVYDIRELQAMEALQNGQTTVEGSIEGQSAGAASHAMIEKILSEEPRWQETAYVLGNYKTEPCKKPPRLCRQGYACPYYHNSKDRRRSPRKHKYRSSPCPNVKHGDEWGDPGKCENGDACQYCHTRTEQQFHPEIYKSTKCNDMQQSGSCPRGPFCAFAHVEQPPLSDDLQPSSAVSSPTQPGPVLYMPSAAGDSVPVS"}
{"Strand": "AACUUCGUACAUAGAUUUCCCUUUGUAGCUGUUUCAAUUGGCUUCCUUGUGAAUAAAGAGAUGGAGUUUGGAGUUGUGUACAGCUGUGUGGAAGAUAAGAUGUACACCGGCAGGAAAGGG", "bound/input enrichment [ratio]": 1}
{"Strand": "CUGGCCUUCUGAGCAUCAGGGGCCUCCUUUCGUAUAGUAACUGUCAGUGCAUCAGAUACUUUCAGCUGCAACUCCCUACUGGGUGGGGCACCCAUUUCAGGCAGAAGGUUUUGGUACCCU", "bound/input enrichment [ratio]": 0.265}
{"Strand": "UCAGGAACCCAGACAAAUAUGAAUGUAAAUGAAGUCAUUAGCAACAGAGCAAUUGAAAUGUUAGGAGGUGAACUUGGCAGCAAGAAGCCUGUGCACCCCAAUGAUCAUGUUAACAAAAGC", "bound/input enrichment [ratio]": 0.524}
{"Strand": "CUGGGUAUCAUCUCUCGAGCUGUUAAACACCUGUUCAAGAGUAUUGAUGAGAAAAAGACCUCAGCGAUUAAAAACGGGCUGCCCCCUCCUGAAUUCAAAGUGAAUGCCCAGUUCCUAGAG", "bound/input enrichment [ratio]": 0.32}
{"Strand": "UGUGAACUGAAAGGUGUGAUCUAAAAACAAGAUGACUUUUCCUGGCACAUAUUCCAAAGCAAAGACUUUGUUGCCUGCUGCUUAUUGUCUAAUUUACAGGGAUAUUUAAUUUUGUAAGGU", "bound/input enrichment [ratio]": 0.152}
{"Strand": "AUGGAGAAGGAUUCUCUGCCCCGCUUUGUGCGCUCUGAAUUUUAUAAGGAGCUAAUCAAGUAGUAAUCUGGUCAGGCUUCCAAAAGUUGCCCUGUGAGUUGAGUUACAUAAUAACCCGCA", "bound/input enrichment [ratio]": 0.188}
{"Strand": "ACCUCCCCCUCCCGCCUCACCCCACCCCCGCUUUUUGGAAAGUUUUUGGCGUUUCUUUUUUUUAGAAAGUUAGAAUUAUUACAGUUUCCCCCGCAAGGGUCUAUCGAAGGGCUUGACGGA", "bound/input enrichment [ratio]": 2.53}
{"Strand": "CACAGAGGCACCACCCCCCCCUCCUCCUUUCCACACCUGCAAACUCUUUUACUUGGGCUGCAUAGUUAGUGUAAUUACAUCUCAGCUUUGAGGGCUCCUGUGGCAAAUUCCCGGAUUAAA", "bound/input enrichment [ratio]": 2.78}
{"Strand": "AGAUUCCCUCUCUUAAAACCUCCUCCGAAGUUGGAGUCUCUUACAGAUGCCUCAUCCCCUGUUAGCGUUUUAGUUUGGACCACCCAGCCUUGGACGAUUCCCGCCAACCAGGCAAUUUGC", "bound/input enrichment [ratio]": 0.682}
{"Strand": "UGACAAGGGCACUGCAGAGCCAUGCCUUUCUUGGACAUACAGAAAAAGCUGGGCAUCAGCCUGGACCGGCACUUUAUGUUCCUAAGCGCAGAACAGCCCUAUAAGAACGCCGCUCGGUGC", "bound/input enrichment [ratio]": 0.0802}
{"Strand": "UUCUAGUAUGAUGGUGAUAUUGGCAAUUAUUAUUAUGGCCAGGGUCAUCCCAUGAAGCCUCAUAGAAUCCGGAUGACUCAUAACUUGCUGCUAAAUUAUGGUUUAUACAGAAAAAUGGAA", "bound/input enrichment [ratio]": 0.299}
{"data": "Block 4", "target": "Histone acetyltransferase KAT6A, winged helix 1, GST fusion (KAT6A, Homo sapiens, UniProt Q92794, residues 1-85)", "method": "protein binding microarray", "form": "double-stranded DNA, one strand shown", "matrix": "in vitro", "concentration": "not given", "notes": "8-mer, flanks averaged, mean of 2 arrays, mostly near background", "baseline": "not given", "direction": "higher = stronger binding", "Residues (chain)": "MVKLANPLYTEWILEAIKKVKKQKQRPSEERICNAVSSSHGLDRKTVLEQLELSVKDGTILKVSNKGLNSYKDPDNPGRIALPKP"}
{"Strand": "AGATTATC", "E-score": -0.0977}
{"Strand": "CGACGGCC", "E-score": 0.435}
{"Strand": "AGACTTAC", "E-score": -0.0225}
{"Strand": "ACAACTGA", "E-score": -0.13}
{"Strand": "GAATCGAC", "E-score": -0.0635}
{"Strand": "CACACTGC", "E-score": 0.0752}
{"Strand": "AGTGCAAT", "E-score": -0.0835}
{"Strand": "AGAGGGTC", "E-score": -0.183}
{"Strand": "GACTGACA", "E-score": -0.107}
{"Strand": "AATAGGGA", "E-score": -0.0981}
{"Strand": "ATCTGCCG", "E-score": 0.276}
{"Strand": "GATGTAGC", "E-score": 0.0375}
{"Strand": "AGGTCGCG", "E-score": 0.17}
{"Strand": "CCATAGGA", "E-score": -0.19}
{"Strand": "AGATGCGA", "E-score": 0.12}
{"Strand": "GGAAGGGA", "E-score": -0.0253}
{"Strand": "ACCCACAA", "E-score": -0.127}
{"Strand": "CTGTCTGC", "E-score": -0.145}
{"Strand": "ATCCCATC", "E-score": -0.22}
{"note": "Some of these lines once more (block 4):"}
{"Strand": "ACCCACAA", "E-score": -0.127}
{"Strand": "CTGTCTGC", "E-score": -0.145}
{"Strand": "AGGTCGCG", "E-score": 0.17}
{"Strand": "AATAGGGA", "E-score": -0.0981}
{"Strand": "GACTGACA", "E-score": -0.107}
{"Strand": "ACAACTGA", "E-score": -0.13}
{"Strand": "AGTGCAAT", "E-score": -0.0835}
{"Strand": "AGACTTAC", "E-score": -0.0225}
